# Published values from different studies.
# Parts stem from different laboratories: compare values within a part only.

# Sample 1 — technique: RNA Bind-n-Seq; molecule type: RNA; medium: in vitro; concentration: not given; reference: input RNA pool; reading: higher = stronger binding
# Target: RING finger protein unkempt homolog, zinc fingers 1-6, GST-SBP tag (UNK, Homo sapiens, UniProt Q9C0B0, residues 30-357)
# Sequence of UniProt Q9C0B0 (30-357, looked up): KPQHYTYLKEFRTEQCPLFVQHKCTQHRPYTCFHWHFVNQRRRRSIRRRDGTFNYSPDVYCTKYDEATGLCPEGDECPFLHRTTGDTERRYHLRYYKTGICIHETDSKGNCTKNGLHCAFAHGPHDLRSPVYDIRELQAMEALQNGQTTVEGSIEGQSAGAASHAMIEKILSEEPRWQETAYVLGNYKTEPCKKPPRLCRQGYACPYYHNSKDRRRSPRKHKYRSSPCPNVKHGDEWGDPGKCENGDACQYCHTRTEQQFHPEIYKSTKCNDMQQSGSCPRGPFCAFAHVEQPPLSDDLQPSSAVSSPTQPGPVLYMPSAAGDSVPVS
# Setting: RNA with constant flanks, human-mouse chimeric sites, ends assumed
Oligonucleotide,bound/input enrichment [ratio]
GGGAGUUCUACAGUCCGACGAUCGGGACUGAUUCAUCCCAAGGACAGGCCACCCCAUUUGAUGCCUGGACUGAUGACAGUAUGUUAGGGCCUAGUCAAAAUGUUGAAGCUGAGUCAAUUCAGGAUGCCAUGCAUAUGGCAGAGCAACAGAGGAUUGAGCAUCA,0.419
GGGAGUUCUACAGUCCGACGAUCUUUCUAUUGCAGCAAACGAUGCUAAGAGUGAAGGAUCCUAAGAAGUCCCUGGAUUUUUAUACGAGGGUUCUUGGACUGACCCUCCUGCAGAAGCUUGACUUCCCUGCUAUGAAGUUCUCGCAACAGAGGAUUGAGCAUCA,0.179
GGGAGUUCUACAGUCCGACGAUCUAAAUUAGGGCUGCCGUUUUCUGUUUCGCCCUGAGCUGCGGAAAGCCAGGCGGUUUUAUCUAGCUUAUACAAGGCUGCUGGUGUUCCCUCUUUUUUUCCACGAGGGUGUUUUUGGCUGCACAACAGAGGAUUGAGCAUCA,1.59
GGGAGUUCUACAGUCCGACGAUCUCUGGUCACACUCGUGUGUAUGGUGUUUGCUUUGUGGAUACUUCACUGGGCAAGUUUUUCAUCGGCCAGUUUUCAGAUGACCGCCACUGUUCCAGAUUUAGGACGCUAGUGGCUCACUAUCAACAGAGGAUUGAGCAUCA,0.204
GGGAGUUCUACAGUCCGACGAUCAGAUUCCCCCUCCUGAGACCUCCUCCGAAGUUGGAGUCUCUUACAGAUGCCUCAUCCCCUGUUAGUAUUUUAGUUUGGACCACCCAGCCUUGGACAAUUCCCGCCAAUGAAGCUGUUUGCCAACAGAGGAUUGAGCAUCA,4.11
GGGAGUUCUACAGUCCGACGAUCUCCCAAAUCCAGCAGCUAGAAGGAGCCUUGAGACAAACACUCCACACACAGGGAAGGCGAUAACAUUGUAAAUUGGUUUACAUUUUUUCCCCCUGUGUUUUCUAGGGGAGGUCAUAGUGCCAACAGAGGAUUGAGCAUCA,0.382
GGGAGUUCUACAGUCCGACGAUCAAAGUGGACUAUGGCGAGUACAUGGAUAAAAACAAUGUGAGGCGGCAAGCAACAACAAUCAUAGCUGAUAACAUUAUAUUUCUGAGUGACCAGACAAAAGAGAAGGAAUAGAACGGAUGACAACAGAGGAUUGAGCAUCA,3
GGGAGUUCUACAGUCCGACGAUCUUAUCCAAGACUCAACGAAAGACUCCAACGGUUAUUCAUAAACAUUAUCAAAUUCAUCGCAUUAGACAUUUUUAUAUGAGAAAAGUCAAAUUUACUCAACAGAAUUACCAUGACAGACUGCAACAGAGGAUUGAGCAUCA,5.25
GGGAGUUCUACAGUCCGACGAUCAGGAGGAGGUUAAAGGGUGAGAGUGGGAUGGAGGAUUGUGUCAUGGCUCUGGAGACACUGUUCAGUGUCCUGCUUUCUCUGUGCAGACUGAUGGCCCCUUACACGCCCUUUCUGACUGAGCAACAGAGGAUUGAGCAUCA,0.148
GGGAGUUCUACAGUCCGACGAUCGUUCGGCUCUGGGAUCAUGCUACUAUGACAGAAGUGAAAUCUCUGAAUUUUAAUAUGUCUGUUAGCAGUAUGGAAUAUAUUCCUGAAGGAGAGAUUUUGGUUAUUACUUAUGGACGAUCUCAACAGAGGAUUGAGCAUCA,0.353
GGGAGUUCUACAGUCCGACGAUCAAUUUCCGCAACUGUUUUUUAGACAUUGCCAUAGGUAUUACAGAGCACCUGGCCACAUUCUAGGUUUGUGUUAUUUCUCAGCUAUGGAUAUGAUCAAAUGAGAACACUGCUUAACUAAUGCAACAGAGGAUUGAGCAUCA,1.59

# Sample 2 — technique: protein binding microarray; molecule type: double-stranded DNA, one strand shown; medium: in vitro; concentration: not given; reference: not given; reading: higher = stronger binding
# Target: Histone acetyltransferase KAT6A, winged helix 1, GST fusion (KAT6A, Homo sapiens, UniProt Q92794, residues 1-85)
# Setting: 8-mer, flanks averaged, mean of 2 arrays, mostly near background
# Target sequence (chain): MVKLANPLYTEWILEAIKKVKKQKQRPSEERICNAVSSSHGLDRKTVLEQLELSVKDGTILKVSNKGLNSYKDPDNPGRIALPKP
Oligonucleotide,E-score
AAAAGTAT,0.014
GCTGGGCA,-0.224
CGTTCGAG,0.0305
AGCTTTAG,-0.148
CGAGCCAG,-0.141
GATCCCCA,-0.0957
CGCATCGC,0.268
CATACCAC,-0.157
GGGTCCTA,-0.15
ATTGCAAC,-0.113
AGACCGCG,0.345
ATTTGAGC,-0.119
AAATTGGA,-0.272
AGCGCTTC,0.335
CGCTCCCA,0.0392
CAATTACC,-0.0167
ACGTAGAC,-0.0539
GCACATGC,0.109
CGAAAACG,0.11
GCATAGGC,-0.0715
ATGCCTTC,-0.266
ATAAACTG,-0.0623
ATAAGCAG,-0.178
GGACGAGA,-0.0669
ACTTTTAC,-0.0496

# Sample 3 — technique: RNA Bind-n-Seq; molecule type: RNA; medium: in vitro; concentration: not given; setting: 4-mer, random 30-nt RNA, single round; added: RocA, ADP, phosphate; reference: input library; reading: higher = stronger binding
# Target: Eukaryotic initiation factor 4A-I (EIF4A1, Homo sapiens, UniProt P60842, residues 1-406, full length assumed)
# Sequence of UniProt P60842 (whole entry, looked up): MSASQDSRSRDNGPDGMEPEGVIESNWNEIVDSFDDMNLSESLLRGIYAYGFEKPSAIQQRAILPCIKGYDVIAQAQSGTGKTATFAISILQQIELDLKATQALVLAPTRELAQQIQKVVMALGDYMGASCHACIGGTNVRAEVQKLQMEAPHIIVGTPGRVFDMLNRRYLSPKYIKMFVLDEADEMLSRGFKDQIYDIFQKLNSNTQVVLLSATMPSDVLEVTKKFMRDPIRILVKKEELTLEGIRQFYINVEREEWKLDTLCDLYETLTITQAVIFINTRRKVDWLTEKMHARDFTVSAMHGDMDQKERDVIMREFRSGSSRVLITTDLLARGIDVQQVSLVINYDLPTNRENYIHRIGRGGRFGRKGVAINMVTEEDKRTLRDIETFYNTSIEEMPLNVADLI
Oligonucleotide,4-mer enrichment [fold]
UUUG,1.11
UCCC,0.597
GAAC,0.989
UAGG,1.12
GUUC,0.707
CGGC,0.641
CAUU,0.714
UGAG,2.79
UGUU,0.963
AGCA,1.28
GCUC,0.498
UGGA,1.88
CUCU,0.444
UAUA,0.937
CCAA,0.67
CUUU,0.625
ACCC,0.64
CCGG,0.716
UCUG,0.702
UGGC,0.733
AGAA,2.13
UAAG,1.25
AGCU,0.961

# Sample 4 — technique: RNA Bind-n-Seq; molecule type: RNA; medium: in vitro; concentration: 365 nM; reference: no-protein control; reading: higher = stronger binding
# Target: RNA binding protein fox-1 homolog 2, RRM domain, GST-SBP tag (RBFOX2, Homo sapiens, UniProt O43251-10, residues 100-194)
# Setting: natural RNA segment, single round, ends assumed
# Construct (chain): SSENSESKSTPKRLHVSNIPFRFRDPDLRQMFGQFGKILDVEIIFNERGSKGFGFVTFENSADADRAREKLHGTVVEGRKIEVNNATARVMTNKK
Oligonucleotide,RBNS enrichment (R)
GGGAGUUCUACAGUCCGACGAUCUCCAUUUUCUCAACAGCUGGAGGCCUCUCAGGCACCAUCGCUCGAGUGGCUGCUGGCUCUCAAGCUGCCAUUUUUUCCUGAUGCAAAAAAUGAAAGCAGGCAAAAGUGCUUGGAAUUCUCGGGUGCCAA,0.225
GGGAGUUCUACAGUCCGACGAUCACACAAAGCAACCCAAAGGCUUUUCCCUGGAAAAGCUCUUUCUUACCUAAAGAUAAAACCAAUUCACAAACUGAAGGUAGCUUUUUAUUACUCCGUGGGGAGCAUGUACAUGGAAUUCUCGGGUGCCAA,20.5
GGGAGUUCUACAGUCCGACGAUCUGAACUCCAGCCUUCCUUCCGUGGAGCUCGAGUGAGGUUUACGGAGGUGCCCAGAUUCCUUUCCCUUUAACGCGUGUAAAGUUCUGUGCAUUUGAUUGUAAACUGUACUCUGGAAUUCUCGGGUGCCAA,0.305
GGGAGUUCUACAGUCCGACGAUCCCAUCCUACUAUAAUAAAUUUUGCACCCACACACAAGUACACAGUUUGCUGUUUUAGAAAGUGAUUCUACAAUCUCGGCUGUCAGGACAGCUGGGAUGCUUACUGUGAAAUGGAAUUCUCGGGUGCCAA,0.738
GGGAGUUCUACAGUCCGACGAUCAAGUGAAAAUUUAUGAAGAGUAUUUGGAAGUGUGUACAGAAAUAAACUAGACUUACAGGUAGGCUAGAUCAGAACGUUAACAUAUGAACCUGCAGAAAUCUGGUAAGACUUGGAAUUCUCGGGUGCCAA,0.641
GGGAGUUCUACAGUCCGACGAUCUCUCAAAUGGAUCUCGAAGUUCUCUAGUAAGGAGUCCUAAGGAUGACAUGUAUUGGGCCACUAGCAGGGAUUGAAAACAUUUUAAAAGAAAUCCUUUUUCUUAGGAGUAAUGGAAUUCUCGGGUGCCAA,0.517
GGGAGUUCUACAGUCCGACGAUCUCAGGCUUUAGGAACUGAAGAGGGUUUCUGAAGAUCUAUCCAGCACUCCGAUGGCCAGCAACAACACCGCCAGCAUAGCACAAGCCAGGAAGCUGGUAGAGCAGCUUAAGUGGAAUUCUCGGGUGCCAA,0.39
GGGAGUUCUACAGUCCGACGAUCGCCUAGCUUACACAGAGCCUGGGUUCAGUCCUUCACACUGUAUAAACUGGGCGAGACAGAGCAUGUUUGCAGUCCUAGCAUUCAGCAGGUAGAGACAGGAAGAUGAGAAGUGGAAUUCUCGGGUGCCAA,0.364
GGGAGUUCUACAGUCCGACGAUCCCUGAGUGUUUGCUUUCGGUUUGUUGGUAUGCCUGUAUUGCUGGGCUGUGCUGCUGCUCGAAGCAGAUGGUUUUGACUGUCUUUUUGCUCUUUCCUAUAUAAUGAAUAGAUGGAAUUCUCGGGUGCCAA,0.655
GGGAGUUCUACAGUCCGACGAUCUGUAAGACAGGCGUGCUAGUGAGCAGUCGUGUGUGGCUCUGGACUCUGACCCCAGAGCUCUGAAGAAUGCUCUUAUCAGAAGAUAGGAAAUGAAAAUAUCCUUUUUUAAAUGGAAUUCUCGGGUGCCAA,0.927
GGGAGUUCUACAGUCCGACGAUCUAUAGAGACUAGGAGUUAAGGGGCCUGCCUAAGAUUGCAGUGAUAAAGAACUGAACCCUAAAUCAGCUCCCACUAAUGAAACCCUGCUUUCCUUGUAUCUUUUAAACUCAUGGAAUUCUCGGGUGCCAA,0.677
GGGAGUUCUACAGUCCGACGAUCAGCCAUUGAGAGCUGUUCUUGUGAUCCAUGUCCUUCAUAAGCUGAACCACCACCAGAGAAAAGCAGGCCUGUGCAGUGCAGAUGCAAUGGAACGCAUCCCACCUUGCCAAUGGAAUUCUCGGGUGCCAA,0.529

# A few entries again (sample 3):
Oligonucleotide,4-mer enrichment [fold]
UAAG,1.25
CGGC,0.641
AGCU,0.961
CCGG,0.716
UGUU,0.963
UGGA,1.88
UAUA,0.937
UCCC,0.597
